Assay results pooled from the literature.
Protocols differ between the studies behind these lines. Numbers after ± are the reported error. In brackets after ≈: the same amount, converted by molar mass.

For `[64Cu+2].c1ccc(CNCc2ccc(CN3CCCN4CCNCCCN(CC4)CC3)cc2)nc1`, the tissue uptake was 1.87 ± 0.22 %ID/g (CXCR4; NOD/SCID mouse, U87 and U87-stb-CXCR4 xenografts, heart; iv, 480 min, ex vivo).
For `COc1cc(CCC(C)=O)ccc1O`, the IC50 was over 4 µg/mL (mAb 5-D8; antibody binding, indirect competitive ELISA; added: coating antigen hapten 2-OVA).
The tissue uptake of `N=C(N)NCCC[C@@H]1NC(=O)[C@H](CCCCNC(=O)CNC(=O)CNC(=O)CNC(=O)CC[C@H](NC(=O)CNC(=O)CNC(=O)CNC(=O)CN2CCN(CC(=O)O)CCN(CC(=O)O)CCN(CC(=O)O)CC2)C(=O)NCC(=O)NCC(=O)NCC(=O)NCCCC[C@@H]2NC(=O)[C@@H](Cc3ccccc3)NC(=O)[C@H](CC(=O)O)NC(=O)CNC(=O)[C@H](CCCNC(=N)N)NC2=O)NC(=O)[C@@H](Cc2ccccc2)NC(=O)[C@H](CC(=O)O)NC(=O)CNC1=O` [indium-111 labelled] is reported as 0.88 ± 0.17 %ID/g (female athymic nu/nu mice, spleen; intravenous, 111 kBq, 72 h).
`CCCCC/C=C/C(=O)CCc1ccc(O)c(OC)c1` has an IC50 of 0.359 µg/mL (≈ 1.3 µM) (mAb 5-D8; antibody binding, indirect competitive ELISA; added: coating antigen hapten 4-OVA).
`N=C(N)NCCC[C@@H]1NC(=O)[C@H](CCCCNC(=O)CCC(C(=O)O)N2CCCN3CCN(CCCN(CC(=O)O)CC3)CC2)NC(=O)[C@@H](Cc2ccc(O)cc2)NC(=O)[C@H](CC(=O)O)NC(=O)CNC1=O` (stereo partly shown) [copper-64 labelled] has a tumour uptake of 1.95 ± 0.1 %ID/g (SCID mouse, PC-3 xenograft, tumour; iv, dose not given, 1 h).
For `CC(C)C[C@H](NC(=O)[C@H](CC(C)C)NC(=O)[C@H](CCCNC(=N)N)NC(=O)[C@H](CCCNC(=N)N)NC(=O)[C@H](CC(C)C)NC(=O)[C@H](CC(C)C)NC(=O)[C@H](CCCNC(=N)N)NC(=O)CCCCCNC(=O)/C=C/c1ccc(O)c(O)c1)C(=O)N[C@@H](CCCNC(=N)N)C(N)=O`, the retention time was 6.4 min (RP-HPLC, C18 column; higher is more hydrophobic).
The tissue uptake of `CCCC[C@H](NC(=O)CNC(=O)CNC(=O)CN1CCN(CC(=O)O)CCN(CC(=O)O)CCN(CC(=O)O)CC1)C(=O)N[C@H]1CC(=O)NCCCC[C@@H](C(N)=O)NC(=O)[C@H](Cc2c[nH]c3ccccc23)NC(=O)[C@H](CCCNC(=N)N)NC(=O)[C@@H](Cc2ccccc2)NC(=O)[C@H](Cc2c[nH]cn2)NC1=O` [lutetium-177 labelled] is reported as 0.27 ± 0.14 %ID/g (C57 mouse, female, spleen; intravenous, 0.037 MBq, 2 h).
For `CCCC[C@H](NC(=O)CCCCCCCNC(=O)CN1CCN(CC(=O)O)CCN(CC(=O)O)CC1)C(=O)N[C@H]1CC(=O)NCCCC[C@@H](C(N)=O)NC(=O)[C@H](Cc2c[nH]c3ccccc23)NC(=O)[C@H](CCCNC(=N)N)NC(=O)[C@@H](Cc2ccccc2)NC(=O)[C@H](Cc2c[nH]cn2)NC1=O` [copper-64 labelled], the tissue uptake was 7.71 ± 0.67 %ID/g (C57 mice, tumor; intravenous, 0.37 MBq, 2 h).
With `CC(C)C[C@H](NC(=O)[C@@H](CCCCNC(=O)CCCCCNC(=O)CN1CCN(CC(=O)O)CCN(CC(=O)O)CCN(CC(=O)O)CC1)NC(=O)[C@H](Cc1ccc(O)cc1)NC(=O)[C@H](CO)NC(=O)[C@H](Cc1c[nH]c2ccccc12)NC(=O)[C@H](Cc1cnc[nH]1)NC(=O)[C@@H]1CCC(=O)N1)C(=O)N[C@@H](CCCNC(=N)N)C(=O)N1CCC[C@H]1C(=O)NCC(N)=O` [indium-111 labelled] the tissue uptake was 15.4 ± 4.59 %ID/g (female athymic nude mouse, kidneys; intravenous, 0.037 MBq, 0.5 h).
`NS(=O)(=O)Nc1ncnc(OCCOc2ncc(Br)cn2)c1-c1ccc(Br)cc1` gave a Vmax of 195 ± 15 pmol/min/mg (metabolite formation; female Sprague-Dawley rat, liver microsomes; 150 mg/kg daily for 4 weeks).
`N=C(N)NCCC[C@H](NC(=O)[C@H](Cc1c[nH]c2ccccc12)NC(=O)[C@H](CCC(N)=O)NC(=O)[C@H](Cc1c[nH]c2ccccc12)NC(=O)[C@H](CCCNC(=N)N)NC(=O)[C@H](Cc1c[nH]c2ccccc12)NC(=O)[C@H](CCC(N)=O)NC(=O)[C@H](Cc1c[nH]c2ccccc12)NC(=O)[C@H](CCCNC(=N)N)NC(=O)CCCCCNC(=O)/C=C/c1ccc(O)c(O)c1)C(N)=O` gave a retention time of 6.3 min (RP-HPLC, C18 column; higher is more hydrophobic).
With `CCCC[C@H](NC(=O)CNC(=O)CNC(=O)CN1CCN(CC(=O)O)CCN(CC(=O)O)CC1)C(=O)N[C@H]1CC(=O)NCCCC[C@@H](C(N)=O)NC(=O)[C@H](Cc2c[nH]c3ccccc23)NC(=O)[C@H](CCCNC(=N)N)NC(=O)[C@@H](Cc2ccccc2)NC(=O)[C@H](Cc2c[nH]cn2)NC1=O` [technetium-99m labelled] the tissue uptake was 0.18 ± 0.05 %ID/g (C57 mouse, lung; iv, 0.037 MBq, 4 h).
For `C=C1CC[C@H](OCCCNC(=O)CCOCCOCCOCCOCCOCCOCCOCCOCCOCCOCCOCCOCCOCCOCCOCCOCCOCCOCCOCCOCCOCCOCCOCCOCCOCCOCCOCCOCCOCCOCCOCCOCCOCCOCCOCCOCCNC(=O)CCN2C(=O)CC(SC[C@H](NC(=O)[C@H](Cc3ccccc3)NC(=O)[C@H](CC(N)=O)NC(=O)[C@H](Cc3c[nH]cn3)NC(=O)[C@@H](NC(=O)[C@H](CC(=O)O)NC(=O)[C@H](CCC(N)=O)NC(=O)[C@H](CC(C)C)NC(=O)[C@H](CCCCN)NC(=O)[C@H](CCCCN)NC(=O)[C@H](CCCNC(=N)N)NC(=O)[C@H](CC(C)C)NC(=O)[C@H](Cc3c[nH]c4ccccc34)NC(=O)[C@H](CCC(=O)O)NC(=O)[C@@H](NC(=O)[C@H](CCCNC(=N)N)NC(=O)[C@H](CCC(=O)O)NC(=O)[C@H](CCSC)NC(=O)[C@H](CO)NC(=O)[C@H](CC(N)=O)NC(=O)[C@H](CC(C)C)NC(=O)[C@H](Cc3c[nH]cn3)NC(=O)[C@H](CCCCN)NC(=O)CNC(=O)[C@H](CC(C)C)NC(=O)[C@H](CC(N)=O)NC(=O)[C@H](Cc3c[nH]cn3)NC(=O)[C@H](CCSC)NC(=O)[C@H](CC(C)C)NC(=O)[C@H](CCC(N)=O)NC(=O)[C@@H](NC(=O)[C@H](CCC(=O)O)NC(=O)[C@H](CO)NC(=O)[C@@H](NC(=O)[C@@H](N)CO)C(C)C)[C@@H](C)CC)C(C)C)C(C)C)C(N)=O)C2=O)C/C1=C/C=C1\CCC[C@]2(C)[C@@H]([C@H](C)CCCC(C)(C)O)CC[C@@H]12` (stereo partly shown), the dose-normalized AUC was 0.99 (Sprague Dawley rat; subcutaneous, 14.2 µg/kg daily, 21 days; baseline: 1 µg/kg dose).

Some of these lines once more:
For `CC(C)C[C@H](NC(=O)[C@H](CC(C)C)NC(=O)[C@H](CCCNC(=N)N)NC(=O)[C@H](CCCNC(=N)N)NC(=O)[C@H](CC(C)C)NC(=O)[C@H](CC(C)C)NC(=O)[C@H](CCCNC(=N)N)NC(=O)CCCCCNC(=O)/C=C/c1ccc(O)c(O)c1)C(=O)N[C@@H](CCCNC(=N)N)C(N)=O`, the retention time was 6.4 min (RP-HPLC, C18 column; higher is more hydrophobic).
The tissue uptake of `CCCC[C@H](NC(=O)CNC(=O)CNC(=O)CN1CCN(CC(=O)O)CCN(CC(=O)O)CCN(CC(=O)O)CC1)C(=O)N[C@H]1CC(=O)NCCCC[C@@H](C(N)=O)NC(=O)[C@H](Cc2c[nH]c3ccccc23)NC(=O)[C@H](CCCNC(=N)N)NC(=O)[C@@H](Cc2ccccc2)NC(=O)[C@H](Cc2c[nH]cn2)NC1=O` [lutetium-177 labelled] is reported as 0.27 ± 0.14 %ID/g (C57 mouse, female, spleen; intravenous, 0.037 MBq, 2 h).
